Results of several laboratories.
Compare with care: the assays were run in different laboratories. Values joined by “and” are separate records of one study, mostly repeats; a detail may differ. ± marks the error that the study gave. ≈ marks a conversion by molar mass, not a printed value.

O=S(=O)([O-])CCSSCCS(=O)(=O)[O-].[Na+].[Na+]
maximum inhibition (human coronavirus OC43; virus-induced cell killing; MRC-5; maximum over 10 doses): 0%

CCCCc1ccc(CNc2nc(N(C)C)nc(N(C)C)c2/N=N/c2ccc(Cl)cc2)cc1
mortality (Ostrinia furnacalis; leaf dipping; 500 mg/L, 96 h): 100%

CNC[C@H](O)[C@@H](O)[C@H](O)[C@H](O)CO.[O]=[Sb](=[O])[OH]
lesion size difference (Leishmania major; BALB/c mouse; topical, dose not given, 7 days, unit not given; baseline: PBS): 4.99

c1ccc2c(c1)[I+]c1ccccc1-2
EC90 (Toxoplasma gondii; glutamine-induced bradyzoites): 112 nM

CN(C)C(=O)/C(C#N)=C/c1ccc(-c2nc3cnc4c(ccn4C)c3n2C2CCCCC2)o1
inhibition (mouse hepatitis virus; viral replication; nanoluciferase reporter; 1 µM): 30%

COc1cc2c3c(c1OC)-c1ccccc1C[C@H]3N(C)CC2
EC50 (Toxoplasma gondii; parasite growth, luciferase reporter; HFF, tachyzoite; 72 h): 21500 nM

Nc1ncnc2c1ncn2[C@@H]1O[C@@H]2COP(=O)(O)O[C@H]3[C@@H](O)[C@H](n4cnc5c(=O)[nH]cnc54)O[C@@H]3COP(=O)(O)O[C@H]2[C@H]1O
fold enrichment (Zika virus; downregulated Reactome pathway, RNA sequencing, item: Non-integrin membrane-ECM interactions (R-HSA-3000171); HFF-1; baseline: ZIKV-infected untreated): 10.9

COc1ccc(OC)c(N2C(=O)NC(=O)/C(=C\c3ccc([N+](=O)[O-])s3)C2=O)c1
maximal activity (Mus musculus; gene silencing, high-content imaging; LDR reporter GFP cells; retest run 2): 29%

Cc1ccc(C(=O)Nc2cccc(C(F)(F)F)c2)cc1Nc1nc(-c2cccnc2)nc2c1cnn2C
inhibition (mouse hepatitis virus; viral replication; nanoluciferase reporter; 1 µM): 57%

COc1ccc2ccc3oc([N+](=O)[O-])cc3c2c1Br
MIC90 (Mycobacteroides abscessus; REMA; ATCC 19977): 8 µg/mL (≈ 24.8 µM)

COc1ccc([C@@]23Oc4cc(OC)cc(OC)c4[C@@]24N=C(C)N[C@@]4(O)[C@H](C(=O)N(C)OC)[C@H]3c2ccccc2)cc1
EC50 (Hepatitis E virus; viral replication; HepG2 HEV-1 replicon, genotype 1; 24 h): 0.64 nM

CCCCCCCCCC(=O)N[C@@H](Cc1c[nH]c2ccccc12)C(=O)N[C@H](CC(N)=O)C(=O)N[C@@H](CC(=O)O)C(=O)N[C@@H]1C(=O)NCC(=O)N[C@@H](CCCN)C(=O)N[C@@H](CC(=O)O)C(=O)N[C@H](C)C(=O)N[C@@H](CC(=O)O)C(=O)NCC(=O)N[C@H](CO)C(=O)N[C@@H]([C@H](C)CC(=O)O)C(=O)N[C@@H](CC(=O)c2ccccc2N)C(=O)O[C@@H]1C
MIC90 (Staphylococcus, coagulase-negative): 0.5 µg/mL (≈ 0.309 µM)

OC[C@H]1O[C@@H](n2ccc3c(SCc4ccc(Cl)cc4Cl)ncnc32)[C@H](O)[C@@H]1O
survival (Toxoplasma gondii; [3H]uracil incorporation; human fibroblasts, RH wild type; 25 µM): 12.9%

O=[N+]([O-])c1cc2c(ccc3c2ccc2cc([N+](=O)[O-])oc23)o1
MIC90 (Mycobacteroides abscessus; REMA; ATCC 19977): > 32 µg/mL

OC[C@H]1O[C@@H](n2ccc3c(SCc4ccc(F)cc4F)ncnc32)[C@H](O)[C@@H]1O
IC50 (Toxoplasma gondii; intracellular parasite growth, [3H]uracil incorporation; human foreskin fibroblasts, RH wild type): 8300 ± 100 nM

N#CC(C#N)=NNc1ccc(OC(F)(F)F)cc1
maximum inhibition (human coronavirus OC43; virus-induced cell killing; MRC-5; screen): 7.65%

CN1C(=O)[C@@H](N2CCc3c(nn(Cc4ccccc4)c3Br)C2=O)COc2ccccc21
inhibition (mouse hepatitis virus; viral replication; nanoluciferase reporter; 1 µM): 44%

N=C(N)c1ccc(OCc2cc(Br)cc(COc3ccc(C(=N)N)cc3)c2)cc1
FICI (Escherichia coli; checkerboard; BW25113 mcr-1 plasmid; unit not given, with: rifampicin; lower = stronger synergy): ≤ 0.078

Cn1c(=O)ccc2ccc(F)c(CCNC[C@H]3CN(c4cnc5c(n4)NC(=O)CO5)C(=O)O3)c21
MIC90 (Stenotrophomonas maltophilia): 0.25 µg/mL (≈ 0.534 µM)

COC(=O)[C@@H]1[C@@H](c2ccccc2)[C@]2(c3ccc(OC)cc3)Oc3cc(OC)cc(OC)c3[C@@]23N=C(C)N[C@@]13O
EC50 (Hepatitis E virus; viral replication; HepG2 HEV-1 replicon, genotype 1; 48 h): 0.98 nM

OC[C@H]1O[C@@H](n2ccc3c(SCc4ccc(Cl)c(Cl)c4)ncnc32)[C@H](O)[C@@H]1O
IC50 (Toxoplasma gondii; intracellular parasite growth, [3H]uracil incorporation; human foreskin fibroblasts, RH wild type): 11500 ± 1400 nM

Cc1c2c(nn1C)CSCc1cc(n(C)n1)CSc1cc(c3ccccc3c1)OCCCc1c(C(=O)O)n(C)c3c-2c(Cl)ccc13
fold change (Staphylococcus aureus; label-free quantitative proteomics, item: SAOUHSC_00113 protein; SA113; concentration not given; baseline: untreated control): 0.0171

COc1cc2ccc3oc([N+](=O)[O-])cc3c2cc1OC
MIC90 (Salmonella enterica; REMA): > 32 µg/mL

Cc1ccc2c(=O)c3cccc(CC(=O)O)c3oc2c1C
maximum inhibition (human coronavirus OC43; virus-induced cell killing; MRC-5; maximum over 10 doses): 0%

O=C(Nc1cc(F)c(F)c(F)c1)c1ccc(F)c(S(=O)(=O)N2CCC(O)CC2)c1
EC50 (hepatitis B virus; viral replication, strand-preferential qPCR, item: positive-strand HBV DNA; HepDES19 cells, genotype D; 3 days): 730 ± 200 nM

C[C@@H]1C[C@@H]([C@H](O)CC2CC(=O)NC(=O)C2)C(=O)[C@@H](C)C1
Emax (Mus musculus; gene silencing, high-content imaging; LDR reporter GFP cells; 30 h, confirmation, mean of two runs): 36%

NC(=O)c1ncn([C@@H]2O[C@H](CO)[C@@H](O)[C@H]2O)n1
inhibition (Hepatitis E virus; viral replication, RT-qPCR of encapsidated RNA, item: HEV RNA copies; genotype 1, full-genome replicon, cell supernatant; 3.1 µM, 48 h, with: artesunate 23.4 µM): 86.6%

CN[C@@H](C)C(=O)N[C@H](C(=O)N1CCC[C@H]1C(=O)N[C@H](C(=O)NCCCCCCNC(=O)[C@@H](NC(=O)[C@@H]1CCCN1C(=O)[C@@H](NC(=O)[C@H](C)NC)C1CCCCC1)C(c1ccccc1)c1ccccc1)C(c1ccccc1)c1ccccc1)C1CCCCC1
maximum inhibition (human coronavirus OC43; virus-induced cell killing; MRC-5; maximum over 10 doses): 0%

N=C(N)NCCC[C@H](NC(=O)CN)C(=O)N[C@@H](Cc1c[nH]c2ccccc12)C(=O)N[C@@H](CCCNC(=N)N)C(=O)N[C@@H](Cc1c[nH]c2ccccc12)C(=O)N[C@@H](Cc1c[nH]c2ccccc12)C(=O)N[C@@H](Cc1c[nH]c2ccccc12)C(=O)N[C@@H](CCCNC(=N)N)C(=O)N[C@@H](Cc1c[nH]c2ccccc12)C(=O)N[C@@H](CCCNC(=N)N)C(=O)N[C@@H](Cc1ccccc1)C(N)=O
MIC (Candida albicans; broth microdilution; SP3903, RPMI 1640-MOPS; 48 h, 30 °C): 8 µM (≈ 14.2 µg/mL)

O=C(O)CSc1ncnc2sc(-c3cc4ccccc4s3)cc12
inhibition (mouse hepatitis virus; viral replication; nanoluciferase reporter; 1 µM): -48%

Cc1ccc2nc(NC(=O)CSc3nc4c(c(=O)n3-c3ccccc3)SCC4)sc2c1
maximum inhibition (human coronavirus OC43; virus-induced cell killing; MRC-5; screen): 5.6%

CCC[C@@H]1C[C@@H](C(=O)N[C@@H]([C@H]2O[C@H](SC)[C@H](O)[C@@H](O)[C@H]2O)[C@H](C)Cl)N(C)C1
MIC90 (Staphylococcus, coagulase-negative): > 32 µg/mL

Cc1ccc(CSc2ncnc3c2ccn3[C@@H]2O[C@H](CO)[C@@H](O)[C@H]2O)cc1
IC50 (Toxoplasma gondii; intracellular parasite growth, [3H]uracil incorporation; human foreskin fibroblasts, RH wild type): 8800 ± 700 nM

Cc1nc2c(NCc3cccc(S(C)(=O)=O)c3)nccn2c1-c1ccc(O)c(F)c1
IC50 (Rhinovirus C; viral replication, high-content imaging; HeLa-CDHR3 C529Y, RV-C15a-mGL; 3 dpi): 14 nM

COc1ccc(S(=O)(=O)N(CCO)c2ccccc2CN(C)C/C=C/c2ccc(Cl)cc2)cc1
inhibition (mouse hepatitis virus; viral replication; nanoluciferase reporter; 1 µM): 20%

N#Cc1ccc2c(ccc3oc([N+](=O)[O-])cc32)c1
MIC90 (Salmonella enterica; REMA): < 0.25 µg/mL

CS(=O)(=O)CCCn1c(Cn2c(=O)n(CC(F)(F)F)c3ccncc32)cc2cc(Cl)ccc21
LS mean difference vs placebo (respiratory syncytial virus; RT-qPCR; hospitalized infants 1-24 months, nasal swab; oral, 1-9 mg/kg daily, day 7, all doses combined; baseline: placebo): 0.27 log10 copies/mL

N=C(N)NCCC[C@H](NC(=O)[C@H](Cc1c[nH]c2ccccc12)NC(=O)[C@H](CCCNC(=N)N)NC(=O)[C@H](Cc1c[nH]c2ccccc12)NC(=O)[C@H](Cc1c[nH]c2ccccc12)NC(=O)[C@H](Cc1c[nH]c2ccccc12)NC(=O)[C@H](CCCNC(=N)N)NC(=O)[C@H](Cc1c[nH]c2ccccc12)NC(=O)[C@@H](N)CCCNC(=N)N)C(=O)N[C@@H](Cc1c[nH]c2ccccc12)C(N)=O
MIC (Candida albicans; broth microdilution; 14936, RPMI 1640-MOPS; 48 h, 30 °C): 8 µM (≈ 14.1 µg/mL)

COc1ccccc1[C@H](Cn1c(=O)n(C(C)(C)C(=O)O)c(=O)c2c(C)c(-c3ncco3)sc21)OC1CCOCC1
maximum inhibition (human coronavirus OC43; virus-induced cell killing; MRC-5; screen): 12%

CN[C@H](CC(C)C)C(=O)N[C@H]1C(=O)N[C@@H](CC(N)=O)C(=O)N[C@H]2C(=O)N[C@H]3C(=O)N[C@H](C(=O)N[C@H](C(=O)O)c4cc(O)cc(O)c4-c4cc3ccc4O)[C@H](O)c3ccc(c(Cl)c3)Oc3cc2cc(c3O[C@@H]2O[C@H](CO)[C@@H](O)[C@H](O)[C@H]2O[C@H]2C[C@](C)(N)[C@H](O)[C@H](C)O2)Oc2ccc(cc2Cl)[C@H]1O
MIC90 (Staphylococcus, coagulase-negative): 2 µg/mL (≈ 1.38 µM)

CN1CCN(Cc2cc(NC(=O)c3ccc4c(c3)CN(c3ccccc3)CC4)cc(C(F)(F)F)c2)CC1
inhibition (mouse hepatitis virus; viral replication; nanoluciferase reporter; 1 µM): 5%

CC[C@H](C)[C@H](NC(=O)[C@H](C)NC(=O)[C@H](CCCCN)NC(=O)[C@H](CC(C)C)NC(=O)[C@H](C)NC(=O)[C@@H](NC(=O)[C@H](Cc1c[nH]cn1)NC(=O)[C@H](CC(C)C)NC(=O)[C@@H](NC(=O)[C@@H](NC(=O)[C@H](CCCCN)NC(=O)[C@H](C)NC(=O)[C@H](C)NC(=O)[C@H](CO)NC(=O)[C@H](CCCCN)NC(=O)[C@H](Cc1ccccc1)NC(=O)[C@@H](NC(=O)[C@H](CCCCN)NC(=O)[C@H](CC(C)C)NC(=O)[C@H](Cc1ccccc1)NC(=O)[C@H](CO)NC(=O)[C@H](CCCCN)NC(=O)[C@H](Cc1c[nH]c2ccccc12)NC(=O)[C@H](CCCCN)NC(C)=O)[C@@H](C)O)[C@@H](C)O)C(C)C)[C@@H](C)O)C(=O)N[C@@H](CO)C(=O)N[C@@H](CO)C(N)=O
MIC range (Acinetobacter baumannii; ATCC 19606): 2 µg/mL (≈ 0.682 µM)

N#CCNC(=O)c1ccc(-c2ccnc(Nc3ccc(N4CCOCC4)cc3)n2)cc1
maximum inhibition (human coronavirus OC43; virus-induced cell killing; MRC-5; maximum over 10 doses): 0%

CCCCc1c([N+](=O)[O-])oc2ccc3ccccc3c12
MIC90 (Salmonella enterica; REMA): 0.5 µg/mL (≈ 1.86 µM)

C[C@H]1CCC/C=C/[C@@H]2C[C@H](O)C[C@H]2[C@H](O)/C=C/C(=O)O1
EC50 (Toxoplasma gondii; parasite growth; HFF, bradyzoite, glutamine-induced): 168 nM

S=C(NCc1ccc2c(c1)OCO2)N1CCN(c2ncnc3c2oc2ccccc23)CC1
maximum inhibition (human coronavirus OC43; virus-induced cell killing; MRC-5; screen): 2.96%

Fc1ccc(C(OCCN2CCN(CCCc3ccccc3)CC2)c2ccc(F)cc2)cc1
EC90 (Toxoplasma gondii; parasite growth; HFF, bradyzoite, glutamine-induced): 11000 nM

O=[N+]([O-])c1cc2c(ccc3cc(Br)ccc32)o1
MIC90 (Mycobacteroides abscessus; REMA; ATCC 19977): > 32 µg/mL

COC(=O)N[C@H](C(=O)N1CCC[C@H]1c1ncc(-c2ccc(-c3ccc(-c4cnc([C@@H]5CCCN5C(=O)[C@@H](NC(=O)OC)C(C)C)[nH]4)cc3)cc2)[nH]1)C(C)C
combination index (hepatitis C virus; HCV replicon; 75% effect level, with: IFN-α, ratio 1:2.5): 0.66 and 1.06 and 0.88

Repeated from above:
CN(C)C(=O)/C(C#N)=C/c1ccc(-c2nc3cnc4c(ccn4C)c3n2C2CCCCC2)o1
inhibition (mouse hepatitis virus; viral replication; nanoluciferase reporter; 1 µM): 30%

N#Cc1ccc2c(ccc3oc([N+](=O)[O-])cc32)c1
MIC90 (Salmonella enterica; REMA): < 0.25 µg/mL

NC(=O)c1ncn([C@@H]2O[C@H](CO)[C@@H](O)[C@H]2O)n1
inhibition (Hepatitis E virus; viral replication, RT-qPCR of encapsidated RNA, item: HEV RNA copies; genotype 1, full-genome replicon, cell supernatant; 3.1 µM, 48 h, with: artesunate 23.4 µM): 86.6%

O=C(O)CSc1ncnc2sc(-c3cc4ccccc4s3)cc12
inhibition (mouse hepatitis virus; viral replication; nanoluciferase reporter; 1 µM): -48%

N=C(N)c1ccc(OCc2cc(Br)cc(COc3ccc(C(=N)N)cc3)c2)cc1
FICI (Escherichia coli; checkerboard; BW25113 mcr-1 plasmid; unit not given, with: rifampicin; lower = stronger synergy): ≤ 0.078

OC[C@H]1O[C@@H](n2ccc3c(SCc4ccc(F)cc4F)ncnc32)[C@H](O)[C@@H]1O
IC50 (Toxoplasma gondii; intracellular parasite growth, [3H]uracil incorporation; human foreskin fibroblasts, RH wild type): 8300 ± 100 nM
